Measurements of several laboratories.
Each line is one published result; not all experiments were run side by side. Values joined by “and” are separate records of one study, mostly repeats; a detail may differ. ± marks the error that the study gave.
SOST: Sclerostin (SOST, Homo sapiens, UniProt Q9BQB4)
CNR1: Cannabinoid receptor 1 (CNR1, Homo sapiens, UniProt P21554)
DRD4: D(4) dopamine receptor (DRD4, Homo sapiens, UniProt P21917)
Kir3.1/Kir3.4: Kir3.1/Kir3.4 (Homo sapiens, UniProt P48544+P48549)

O=C(CCc1ccc2n1[B-](F)(F)[N+]1=C(c3ccc[nH]3)C=CC1=C2)NCCCn1cc([C@H]2CN(Cc3ccccn3)C(=O)[C@@H]3CCC[C@H]2N3S(=O)(=O)c2cc(Cl)cc(Cl)c2)nn1
EC50 (Peptidyl-prolyl cis-trans isomerase FKBP1A (FKBP1A, Homo sapiens, UniProt P62942); tracer binding, NanoBRET tracer titration; HEK293T transiently expressing FKBP1A; 2 h, 37 °C): 26 ± 3 nM

COc1ccc(C2(C(=O)N3CCC(Nc4nc5ccccc5c(=O)[nH]4)CC3)CC2)cc1
EC50 (MRGPRD (Homo sapiens, UniProt Q8TDS7); β-arrestin recruitment, agonist): 166 nM

CSCC[C@H](NC(=O)[C@H](CC(C)C)NC(=O)CNC(=O)[C@H](Cc1ccccc1)NC(=O)[C@H](Cc1ccccc1)NC(=O)[C@@H](N)CCC(N)=O)C(N)=O
EC50 (Substance-P receptor (TACR1, Homo sapiens, UniProt P25103, N85Q); agonist; concentration not given): 63.1 nM

CC(=O)N[C@@H]1[C@@H](O[C@@H]2O[C@H](C(=O)O)[C@@H](O[C@@H]3O[C@H](COS(=O)(=O)O)[C@@H](OS(=O)(=O)O)[C@H](O[C@@H]4O[C@H](C(=O)O)[C@@H](OS(=O)(=O)O)[C@H](OS(=O)(=O)O)[C@H]4OS(=O)(=O)O)[C@H]3NC(C)=O)[C@H](OS(=O)(=O)O)[C@H]2OS(=O)(=O)O)[C@H](OS(=O)(=O)O)[C@@H](COS(=O)(=O)O)O[C@H]1n1ccnn1
EC50 (SOST; fluorescence polarization competition; with: TAMRA-labelled probe): 9940 ± 880 nM

CCOC(=O)C(CC)(CCCSCCOCCOCCOCCNc1ccc([N+](=O)[O-])c2nonc12)NC(=O)c1ccc(C2CC2)c(Cc2ccc(F)cc2)n1 (centres unmarked)
EC50 (CNR1; cAMP, agonist): 789 nM

O=C(O)c1ccccc1OCc1ccccc1Br
EC50 (Cell division control protein 42 homolog (CDC42, Homo sapiens, UniProt P60953, Q61L); GTP binding, activator, flow cytometry bead; EDTA buffer, with: 100 nM BODIPY-GTP): 50.1 nM

CNC[C@H](O)c1cccc(OCCOCCOCC#Cc2cccc(Cn3c(-c4ccccc4)c(-c4ccccc4)c4c(=N)n([C@H]5CC[C@H](O)CC5)cnc43)c2)c1
EC50 (Alpha-1A adrenergic receptor (ADRA1A, Homo sapiens, UniProt P35348); calcium signal, agonist, fluorescence): > 10000 nM

CC(=O)N[C@@H]1[C@@H](O[C@@H]2O[C@H](C(=O)O)[C@@H](O[C@@H]3O[C@H](CO)[C@@H](O)[C@H](O[C@@H]4O[C@H](C(=O)O)[C@@H](OS(=O)(=O)O)[C@H](OS(=O)(=O)O)[C@H]4OS(=O)(=O)O)[C@H]3NC(C)=O)[C@H](OS(=O)(=O)O)[C@H]2OS(=O)(=O)O)[C@H](O)[C@@H](CO)O[C@H]1N=[N+]=[N-]
EC50 (SOST; fluorescence polarization competition; corrected value, with: TAMRA-labelled probe): 35400 ± 9700 nM

O=C(Cc1ccc(OCc2ccccc2)cc1)NC1(C(=O)O)CCN(C(=O)c2ccc(-c3cccc(Cl)c3)cc2)CC1
EC50 (CNR1; cAMP, agonist, luciferase): > 10000 nM

COc1ccc(CN2CC(COc3cccc(F)c3)CC(F)(F)C2)cc1F (centres unmarked)
Ki (DRD4; ligand displacement, radioligand; cell membranes): 1280 nM

CC(=O)N[C@@H]1[C@@H](O[C@@H]2O[C@H](C(=O)O)[C@@H](OS(=O)(=O)O)[C@H](OS(=O)(=O)O)[C@H]2OS(=O)(=O)O)[C@H](OS(=O)(=O)O)[C@@H](COS(=O)(=O)O)O[C@H]1N=[N+]=[N-]
EC50 (SOST; fluorescence polarization competition; with: TAMRA-labelled probe): 110000 ± 28700 nM

Cc1ncsc1-c1ccc(C(C)NC(=O)C2CC(O)CN2C(=O)C(NC(=O)CCCCCCCCCCN2CCCC(Nc3ncc(Cl)c(Nc4ccccc4S(=O)(=O)C(C)C)n3)C2)C(C)(C)C)cc1 (centres unmarked)
log2 fold change (22Rv1; RNA-seq, item: PPP1R3F mRNA; concentration not given; relative to: DMSO): -1.37

CC(=O)N[C@@H]1[C@@H](O[C@@H]2O[C@H](C(=O)O)[C@@H](O[C@@H]3O[C@H](COS(=O)(=O)O)[C@@H](O)[C@H](O[C@@H]4O[C@H](C(=O)O)[C@@H](O)[C@H](O)[C@H]4O)[C@H]3NC(C)=O)[C@H](O)[C@H]2O)[C@H](O)[C@@H](COS(=O)(=O)O)O[C@H]1N=[N+]=[N-]
EC50 (SOST; fluorescence polarization competition; with: TAMRA-labelled probe): 74000 ± 13200 nM

CCc1cc(NC(=O)COc2ccc(C(F)(F)F)cc2C(F)(F)F)n(C2CCC(F)(F)CC2)n1
EC50 (Kir3.1/Kir3.4; activator, thallium flux; HEK293): 480 nM

COc1ccc(-n2nc([N+](=O)[O-])/c(=N/c3cc(C)ccc3C)n2O)cc1
EC50 (Microtubule-associated protein tau, phosphorylated (MAPT, Homo sapiens, UniProt P10636); tau aggregation cytotoxicity, 10-point dose response): > 28700 nM

CC(=O)N[C@@H]1[C@@H](O[C@@H]2O[C@H](C(=O)O)[C@@H](O[C@@H]3O[C@H](COS(=O)(=O)O)[C@@H](OS(=O)(=O)O)[C@H](O[C@@H]4O[C@H](C(=O)O)[C@@H](O[C@@H]5O[C@H](COS(=O)(=O)O)[C@@H](OS(=O)(=O)O)[C@H](O[C@@H]6O[C@H](C(=O)O)[C@@H](OS(=O)(=O)O)[C@H](OS(=O)(=O)O)[C@H]6OS(=O)(=O)O)[C@H]5NC(C)=O)[C@H](OS(=O)(=O)O)[C@H]4OS(=O)(=O)O)[C@H]3NC(C)=O)[C@H](OS(=O)(=O)O)[C@H]2OS(=O)(=O)O)[C@H](OS(=O)(=O)O)[C@@H](COS(=O)(=O)O)O[C@H]1N=[N+]=[N-]
EC50 (SOST; fluorescence polarization competition; corrected value, with: TAMRA-labelled probe): 609 ± 177 nM

CCN(CC)C(CO)c1cccc2c(C)c(C)oc12 (centres unmarked)
EC50 (Lysophosphatidic acid receptor 1 (LPAR1, Homo sapiens, UniProt Q92633); Gi activation, agonist, NanoBiT G-protein dissociation; HEK293T): 2.29 nM

COC1CN([C@H]2CC[C@H]([C@@]3(C)Oc4c(Cl)cc(C(=O)NCc5c(SC)cc(C)[nH]c5=O)c(C)c4O3)CC2)C1
log2 fold change (RNA-seq, item: GRAMD1C; human, whole blood; dose not given, 24 h; relative to: pretreatment baseline): 1.89

CC(C)Oc1cc(Cl)ccc1CNc1cc(-c2ccccc2)nc2ncnn12
EC50 (G-protein coupled receptor 3 (GPR3, Homo sapiens, UniProt P46089, R152A); cAMP level, agonist, GloSensor; receptor R152A mutant): 155 nM and 123 nM and 132 nM and 339 nM

CS[C@@H]1O[C@H](COS(=O)(=O)O)[C@@H](OS(=O)(=O)O)[C@H](O[C@@H]2O[C@H](C(=O)O)[C@@H](O[C@@H]3O[C@H](COS(=O)(=O)O)[C@@H](OS(=O)(=O)O)[C@H](O[C@@H]4O[C@H](C(=O)O)[C@@H](OS(=O)(=O)O)[C@H](OS(=O)(=O)O)[C@H]4OS(=O)(=O)O)[C@H]3NC(C)=O)[C@H](OS(=O)(=O)O)[C@H]2OS(=O)(=O)O)[C@H]1NC(C)=O
EC50 (SOST; fluorescence polarization competition; with: TAMRA-labelled probe): 11300 ± 1090 nM

CNc1ncnc2c1ncn2C1OC(CO)C(O)C1O (centres unmarked)
EC50 (Adenosine receptor A3 (ADORA3, Homo sapiens, UniProt P0DMS8, L264A); G protein activation, agonist): 12 nM

O=C(COc1cccc(Cl)c1Cl)Nc1cc(C2CC2)nn1C1CCOCC1
EC50 (Kir3.1/Kir3.4; activator, thallium flux; HEK293): 725 nM

COc1ccc(C(=O)c2c(C(=O)NCCCN(C)C)oc3ccc(Cl)cc3c2=O)cc1OC
EC50 (Growth hormone secretagogue receptor type 1 (GHSR, Homo sapiens, UniProt Q92847, A204E); calcium mobilization; HEK293T, transiently transfected): 447 nM

Cn1c(=O)n(C2CCC(=O)NC2=O)c2ccc(C3CCN(CC(=O)Nc4cccc(CS(=O)(=O)N5CC[C@H](Nc6cccc(-c7sc(C(=O)O)c(OCC(=O)O)c7Cl)c6)CC5(C)C)c4)CC3)cc21 (some centres unmarked)
EC50 (Tyrosine-protein phosphatase non-receptor type 6 (PTPN6, Homo sapiens, UniProt P29350); phosphatase activity; with: DiFMUP substrate): > 10000 nM

O=C1C[C@H](c2nc(-c3ccc(F)c4cn[nH]c34)no2)CCCN1c1ccc(F)cc1 (racemic)
EC50 (Cannabinoid receptor 2 (CNR2, Homo sapiens, UniProt P34972, F87A); cAMP, agonist, luciferase): 794 nM

CC(=O)N[C@H]1[C@H](O[C@H]2[C@H](OS(=O)(=O)O)[C@@H](OS(=O)(=O)O)[C@H](O[C@H]3[C@H](OS(=O)(=O)O)[C@@H](COS(=O)(=O)O)OC[C@@H]3NC(C)=O)O[C@@H]2C(=O)O)O[C@H](COS(=O)(=O)O)[C@@H](OS(=O)(=O)O)[C@@H]1O[C@@H]1O[C@H](C(=O)O)[C@@H](OS(=O)(=O)O)[C@H](OS(=O)(=O)O)[C@H]1OS(=O)(=O)O
EC50 (SOST; fluorescence polarization competition; with: TAMRA-labelled probe): 4920 ± 680 nM

COc1ccc(CN2CCC(F)(F)C(COc3cccc(F)c3)C2)cc1F (centres unmarked)
Ki (DRD4; ligand displacement, radioligand; cell membranes): 26.9 nM

Fc1ccc(CN2CCC[C@@H](c3nc(-c4ccc(F)c5cn[nH]c45)no3)C2)cn1
EC50 (CNR1): 94.6 nM and 116 nM and 119 nM

CCOC(=O)C(CC)(CCCSCCOCCOCCN)NC(=O)c1ccc(C2CC2)c(Cc2ccc(F)cc2)n1 (racemic)
EC50 (CNR1; cAMP, agonist): 822 nM

CC(=O)N[C@@H]1[C@@H](O[C@@H]2O[C@H](C(=O)O)[C@@H](O[C@@H]3O[C@H](COS(=O)(=O)O)[C@@H](OS(=O)(=O)O)[C@H](O[C@@H]4O[C@H](C(=O)O)[C@@H](OS(=O)(=O)O)[C@H](OS(=O)(=O)O)[C@H]4OS(=O)(=O)O)[C@H]3NC(C)=O)[C@H](OS(=O)(=O)O)[C@H]2OS(=O)(=O)O)[C@H](OS(=O)(=O)O)[C@@H](COS(=O)(=O)O)O[C@H]1SCCOCCOCCSSCCOCCOCCS[C@@H]1O[C@H](COS(=O)(=O)O)[C@@H](OS(=O)(=O)O)[C@H](O[C@@H]2O[C@H](C(=O)O)[C@@H](O[C@@H]3O[C@H](COS(=O)(=O)O)[C@@H](OS(=O)(=O)O)[C@H](O[C@@H]4O[C@H](C(=O)O)[C@@H](OS(=O)(=O)O)[C@H](OS(=O)(=O)O)[C@H]4OS(=O)(=O)O)[C@H]3NC(C)=O)[C@H](OS(=O)(=O)O)[C@H]2OS(=O)(=O)O)[C@H]1NC(C)=O
EC50 (SOST; fluorescence polarization competition; corrected value, with: TAMRA-labelled probe): 3940 ± 5140 nM

O=C(COc1cccc(Cl)c1Cl)Nc1cc(C2CC2)nn1CC(F)(F)F
EC50 (Kir3.1/Kir3.4; activator, thallium flux; HEK293): > 10000 nM

CC1Cc2ccccc2N1C(=O)CN1CCN(Cc2ccccc2)CC1 (centres unmarked)
EC50 (DRD4; agonist): 2 nM

Nc1ncnc2c1ncn2[C@@H]1O[C@H](COP(=O)(O)OP(=O)(O)OC[C@H]2OC(O)[C@H](O)[C@@H]2O)[C@@H](O)[C@H]1OP(=O)(O)O (some centres unmarked)
EC50 (TRPM2 (Nematostella vectensis, UniProt A7T1N0); agonist): 480 ± 30 nM

O=C(COc1cc(Cl)ccc1Cl)Nc1cc(C2CC2)nn1C1CCOCC1
EC50 (Kir3.1/Kir3.4; activator, thallium flux; HEK293): 815 nM

Cc1cccc(-c2ccc([C@@H]3[C@@H](CO)N4CCCCN(S(=O)(=O)c5nccn5C)C[C@@H]34)cc2)c1C
EC50 (Insulin-degrading enzyme (IDE, Homo sapiens, UniProt P14735); inhibitor): 2 nM

For quick reference, copied from above:
COc1ccc(C2(C(=O)N3CCC(Nc4nc5ccccc5c(=O)[nH]4)CC3)CC2)cc1
EC50 (MRGPRD (Homo sapiens, UniProt Q8TDS7); β-arrestin recruitment, agonist): 166 nM

CSCC[C@H](NC(=O)[C@H](CC(C)C)NC(=O)CNC(=O)[C@H](Cc1ccccc1)NC(=O)[C@H](Cc1ccccc1)NC(=O)[C@@H](N)CCC(N)=O)C(N)=O
EC50 (Substance-P receptor (TACR1, Homo sapiens, UniProt P25103, N85Q); agonist; concentration not given): 63.1 nM

CC(=O)N[C@@H]1[C@@H](O[C@@H]2O[C@H](C(=O)O)[C@@H](O[C@@H]3O[C@H](COS(=O)(=O)O)[C@@H](OS(=O)(=O)O)[C@H](O[C@@H]4O[C@H](C(=O)O)[C@@H](OS(=O)(=O)O)[C@H](OS(=O)(=O)O)[C@H]4OS(=O)(=O)O)[C@H]3NC(C)=O)[C@H](OS(=O)(=O)O)[C@H]2OS(=O)(=O)O)[C@H](OS(=O)(=O)O)[C@@H](COS(=O)(=O)O)O[C@H]1n1ccnn1
EC50 (SOST; fluorescence polarization competition; with: TAMRA-labelled probe): 9940 ± 880 nM

CCOC(=O)C(CC)(CCCSCCOCCOCCOCCNc1ccc([N+](=O)[O-])c2nonc12)NC(=O)c1ccc(C2CC2)c(Cc2ccc(F)cc2)n1 (centres unmarked)
EC50 (CNR1; cAMP, agonist): 789 nM

O=C(O)c1ccccc1OCc1ccccc1Br
EC50 (Cell division control protein 42 homolog (CDC42, Homo sapiens, UniProt P60953, Q61L); GTP binding, activator, flow cytometry bead; EDTA buffer, with: 100 nM BODIPY-GTP): 50.1 nM
